Published values collected from several papers.
Numbered parts are unrelated; each lists some results of a single study.

Sample 1
Target: RING finger protein unkempt homolog, zinc fingers 1-6, SBP tag (UNK, Homo sapiens, UniProt Q9C0B0, residues 30-357)
UniProt Q9C0B0, sequence (30-357, looked up): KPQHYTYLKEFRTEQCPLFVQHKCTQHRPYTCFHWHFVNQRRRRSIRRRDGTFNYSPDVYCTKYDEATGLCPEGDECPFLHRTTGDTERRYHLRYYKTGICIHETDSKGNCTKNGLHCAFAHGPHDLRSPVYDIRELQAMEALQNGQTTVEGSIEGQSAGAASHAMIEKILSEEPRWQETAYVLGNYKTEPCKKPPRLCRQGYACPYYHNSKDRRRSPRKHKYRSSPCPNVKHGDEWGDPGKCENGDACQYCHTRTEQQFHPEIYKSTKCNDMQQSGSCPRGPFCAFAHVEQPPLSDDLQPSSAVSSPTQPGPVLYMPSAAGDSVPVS
Technique: RNA Bind-n-Seq
Molecule type: RNA
Sample: in vitro
Concentration: 100 nM
Setting: RNA with constant flanks, vertebrate orthologous sites, ends assumed
Relative to: input RNA pool
Direction: higher = stronger binding
All sequences stand within: GGGAGUUCUACAGUCCGACGAUC … CAACAGAGGAUUGAGCAUCA
Sequence	bound/input enrichment
UCCUCAACUUGUUCUAGCUGGCGAUCCUUCAAAAUUGGGUCAGGCAUUAGUGCUAGGUACUAGCAAUGUUCAAUUCUCUGUUGCCAUUGAUCAGAGAGACAGACGUUAAAAACAGUAAUA	0.762 ratio
AAAUUUAUUUCAUGCCCUGGACUCCCUAUCGUACUGAUACUUUGAUAGAAUAUGCUUCUUUAGAAGAUUUCCAAAACAGUCGCCAAACAACAACGUAUAAACUUCCAAAUCGAGUAGAUG	0.796 ratio
UUUGUGGGGAUCGGGGGGUGGGAAGAAGAUGUAUGGAUGUUAUUGGCAUUUUUAAGUGUUCAGAGUUUUUCUUUUUCCUCCUGUUUUGUUUUUUCCCUUUAAUUGGAUGCACUGACCUGG	0.46 ratio
UGGGUUACUCCUAUUAUUAUCAAGUAGCUGGAAUUGUGAAGGUCGGAGUAGUUAGAUCUUUAGCUUUUAUUCCUUAUUUUUUUUGUAUUACUAUCCAUGUGUAUAAAUUAUUGAUCAUGU	3.63 ratio
CCAAGCACUGUAGAGGAAGCUGUGCUCGCCUUAGAGCAUUUUUUUUCUUGCUUUUGGUUUUAGGGGUGGGUGGGUUGUGGCACACACCUCUGAGGCCAGAGCCAUCGGGUUCACCUCGUA	0.542 ratio
UGUUGGUGCAGACUGCUCUCUGUCCCCAGUGCCCAUUGUCCCUUUCACACCGACUGUCCCUAGUUAUAGGAAUUUAAUAUUUUUAAAAGUUUUACAUUGCUGUAUAUUCAAAGAUUUGUU	0.955 ratio
UCCAGUCUUACACUUACAGUUGGCCUCAAAUCUAUUGCAUUUAUGAUAAUGUAUUAUAUCUAGUUGAGUUUAAUAUUUUUUUAUUAGCUUGUAAAUAAAGAUGGCAUCUUCUACAUUAAA	0.588 ratio
ACUGUUGUUAAGCACUGUGUUCCAGACCGUGUCUGACUUAGUGUAACCUAGGAGAUUUUAUAGUUUUAUUUUAAUGAAACCCUAAUUGACGCACAGCAGUGGGGAGAACAGCGUCUUUUA	2.34 ratio
AAGUAGUUUUAAGCUUGUUUGCACAGUUCUUUUUUCCAUUGGAAAUGGAAUUCAUUGCCUUAGGUCUUUUAAAAUAGUGUUUUAUUGUUGGGGCUGGCUCUGUGCUUGCAAUCCAGUUUA	2.6 ratio

Sample 2
Target: Prothrombin, mature alpha-thrombin (F2, Homo sapiens, UniProt P00734)
Technique: aptamer microarray, sandwich
Molecule type: DNA with 2'F-ANA
Sample: in vitro
Concentration: 200 nM
Setting: whole 15-mer aptamer, many near background
With: Cy3 exosite-II aptamer, 400 nM
Direction: higher = stronger binding
Sequence: GGTTGGTGTGGTTGG
Modification	mean fluorescence intensity
2'F-ANA at 1 2 4 6 8 10 12 14	156 a.u.
2'F-ANA at 1 3 4 5 10 12 14	46.1 a.u.
2'F-ANA at 1 3 5 6 14 15	62.2 a.u.
2'F-ANA at 4 6 7 8 10 12 14 15	61.4 a.u.
2'F-ANA at 1 4 7 9 10 11 12 13 14	46.3 a.u.
2'F-ANA at 3 8 12	1460 a.u.
2'F-ANA at 2 4 5 6 9 12 13	83 a.u.
2'F-ANA at 1 2 3 4 5 7 9 12 14	46.3 a.u.
2'F-ANA at 6 7 9 11 13 15	287 a.u.
2'F-ANA at 1 3 5 7 11 14	44.4 a.u.
2'F-ANA at 1 2 4 5 8 9 13 14	59.3 a.u.
2'F-ANA at 2 5 6 7 8 9 13 14 15	46.1 a.u.
2'F-ANA at 3 8 11 13 14 15	552 a.u.
2'F-ANA at 1 2 3 4 7 11 13	131 a.u.
2'F-ANA at 2 3 4 5 7 8 9 12 13 14 15	77.7 a.u.
2'F-ANA at 2 5 6 7 12 15	137 a.u.

Sample 3
Target: Histone acetyltransferase KAT6A, winged helix 1, GST fusion (KAT6A, Homo sapiens, UniProt Q92794, residues 1-85)
Technique: protein binding microarray
Molecule type: double-stranded DNA, one strand shown
Sample: in vitro
Concentration: not given
Setting: 8-mer, flanks averaged, mean of 2 arrays, mostly near background
Relative to: not given
Direction: higher = stronger binding
Residues (chain): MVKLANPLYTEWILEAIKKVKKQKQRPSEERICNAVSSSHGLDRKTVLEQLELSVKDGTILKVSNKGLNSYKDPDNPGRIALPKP
Sequence	E-score
GAGATTCA	-0.204
AGTACATC	-0.043
GCTGTACC	0.152
GTTGAGTA	-0.0122
CAATCGTA	-0.125
AGGCGCTA	0.15
CTAATCAG	-0.109
GACTGCCC	0.0245
CTGACTAC	-0.0287
TGATCAAA	-0.0363
TAAACGGA	0.182
CGCAATAA	0.16
AGGGATCG	-0.0482
CGGCACAC	0.206

Mixed results
Molecule	target	assay	system	setting	scale	endpoint	result
PhoQ, residues 284 288 289 292 302 303 AEGLLW	PhoP, residues 12 14 15 18 19 VQALL (Escherichia coli, UniProt P23836)	Sort-seq, refers to: YFP reporter	E. coli	PhoQ-PhoP variant library, with: 10 µM Mg2+	relative to: high Mg2+ state, higher = stronger signaling	fold induction	2.47
